{"data": "Experimental data gathered from unrelated publications", "note": "Parts stem from different laboratories: compare values within a part only. Substitutions count along the parent as printed."}
{"data": "Series 1", "target": "CCND2, cyclin fold, Cln2 fusion (human)", "method": "yeast growth competition, sequencing", "medium": "yeast", "setting": "weak parent motif", "baseline": "not given", "reading": "higher = stronger binding", "starting sequence": "RBL2 docking peptide (human); STTRRRLFVENDS; partner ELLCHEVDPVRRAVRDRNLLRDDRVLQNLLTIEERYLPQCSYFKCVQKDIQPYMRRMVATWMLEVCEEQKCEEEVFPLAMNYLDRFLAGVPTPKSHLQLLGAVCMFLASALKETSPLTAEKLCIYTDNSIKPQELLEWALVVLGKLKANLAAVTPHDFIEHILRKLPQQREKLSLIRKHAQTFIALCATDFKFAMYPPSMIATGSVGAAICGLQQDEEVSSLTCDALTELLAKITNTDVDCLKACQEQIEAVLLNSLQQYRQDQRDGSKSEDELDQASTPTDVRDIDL"}
{"Variant": "STTRERLFVENDS [R5E]", "normalised enrichment score": 0.2}
{"Variant": "STCRRRLFVENDS [T3C]", "normalised enrichment score": 0.243}
{"Variant": "STMRRRLFVENDS [T3M]", "normalised enrichment score": 0.447}
{"Variant": "STTRKRLLVENDS [R5K F8L]", "normalised enrichment score": -0.116}
{"Variant": "STTRRRLFVENDG [S13G]", "normalised enrichment score": 0.233}
{"Variant": "STTRRRLFVENDD [S13D]", "normalised enrichment score": 0.415}
{"Variant": "STTRRRLFVENDW [S13W]", "normalised enrichment score": 0.0378}
{"Variant": "STTFRRLFVENDS [R4F]", "normalised enrichment score": 0.551}
{"Variant": "STTRRRLFVENKS [D12K]", "normalised enrichment score": 0.287}
{"Variant": "GTTRRRLFVENDS [S1G]", "normalised enrichment score": 0.464}
{"Variant": "SRTRRRLFVENDS [T2R]", "normalised enrichment score": 0.123}
{"Variant": "SHTRRRLFVENDS [T2H]", "normalised enrichment score": 0.461}
{"Variant": "STTRRRLFVENDP [S13P]", "normalised enrichment score": 0.284}
{"Variant": "STTRRRLFVENDK [S13K]", "normalised enrichment score": -0.0277}
{"Variant": "STTRRRLFVENVS [D12V]", "normalised enrichment score": -0.0767}
{"Variant": "STTRRRLFVENPS [D12P]", "normalised enrichment score": 0.0402}
{"Variant": "STTRRRLFMENDS [V9M]", "normalised enrichment score": 0.368}
{"Variant": "STTRRILFVENDS [R6I]", "normalised enrichment score": 0.532}
{"Variant": "TTTRRRLFVENDS [S1T]", "normalised enrichment score": 0.214}
{"data": "Series 2", "target": "Fragile X messenger ribonucleoprotein 1, C-terminal low-complexity region (Fmr1, Mus musculus, UniProt P35922)", "method": "RNA Bind-n-Seq", "form": "RNA", "medium": "in vitro", "tested at": "200 nM", "setting": "whole 134-nt RNA, ends assumed", "with": "150 mM KCl", "baseline": "input library", "reading": "higher = stronger binding", "shared flanks, not repeated": "GGGAGUUCUACAGUCCGACGAUC … UGGAAUUCUCGGGUGUCAAGG"}
{"Oligonucleotide": "GUCCUGUGCUACACAUCGUAUGUACCGAAUCGGGAAAAAAAGGGAAAAAGGGAAAGGGAAAGUAUUAUGUUACGCCGUUCGGAUCUGCAC", "log2 enrichment": -0.361}
{"Oligonucleotide": "AGUCCUGUGCUACACAUCGUAUGUACCGAAUCGGGGUGGGGUUUGGGGUUUUUGGGGAAAGUAUUAUGUUACGCCGUUCGGAUCUGCACU", "log2 enrichment": 1.28}
{"Oligonucleotide": "CCUGUGCUACACAUCGUAUGUACCGAAUCGGGGAAAAAAAGGGGAGGGGAAAAAAAGGGGAAAGUAUUAUGUUACGCCGUUCGGAUCUGC", "log2 enrichment": -0.000793}
{"Oligonucleotide": "AGUCCUGUGCUACACAUCGUAUGUACCGAAUCGGGGUUUUGGGUUUUGGUUUUGGGGAAAGUAUUAUGUUACGCCGUUCGGAUCUGCACU", "log2 enrichment": 0.251}
{"Oligonucleotide": "ACCAUGCAGGUGGGCAUCUUUGGGAAGUGGGGCAAGGGGGGGAUAGGGAGGGGGGUAACACUUUGGGAACAGGUGGUCUCAGGUCGUUUC", "log2 enrichment": 0.726}
{"Oligonucleotide": "ACCAUGCAGGUGGGCAUCUUUGGGAAGUGGGGCAAGGGGGGGAUAGGGAGGGUGGUAACACUUUGGGAACAGGUGGUCCCAGGUCGUUUC", "log2 enrichment": 0.792}
{"Oligonucleotide": "UGGGAGGUGGACUUUGUUUAUUUUUUUAGCUCAUUUCCAGGGGUGGGAAUUUUUUUUUAAUAUGUGUCAUGAAUAAAGUUGUUUUUGAAA", "log2 enrichment": -0.0274}
{"Oligonucleotide": "CCUCAAGUCCUGUGCUACACAUCGUAUGUACCGAAUCGGGCGGGGCGGCGGGGAAAGUAUUAUGUUACGCCGUUCGGAUCUGCACUUCCA", "log2 enrichment": 0.99}
{"Oligonucleotide": "CACAGACAACACGCACCCACACAGACACAGAGGGAAGGGGUUGGGAUGGGGACAGGGUGCACAGCAGGGCGGGGUAGGACCCCUGCCCCU", "log2 enrichment": 1.37}
{"data": "Series 3", "target": "ATF2, bZIP domain (human)", "method": "DHFR protein complementation", "medium": "yeast", "setting": "single substitutions, most at no-binding floor", "baseline": "wild-type JUN-FOS pair", "reading": "higher = stronger binding", "starting sequence": "JUN, bZIP domain (human); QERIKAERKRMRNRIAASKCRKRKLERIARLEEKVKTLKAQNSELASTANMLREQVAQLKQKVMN; partner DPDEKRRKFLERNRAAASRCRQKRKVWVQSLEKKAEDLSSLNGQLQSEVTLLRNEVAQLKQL"}
{"Variant": "E33S", "binding fitness [natural log]": -1.34}
{"Variant": "L31A", "binding fitness [natural log]": -1.49}
{"Variant": "E44R", "binding fitness [natural log]": -1.45}
{"Variant": "A46P", "binding fitness [natural log]": -1.5}
{"Variant": "A49V", "binding fitness [natural log]": -1.39}
{"Variant": "L38Q", "binding fitness [natural log]": -1.49}
{"Variant": "L38V", "binding fitness [natural log]": -1.49}
{"Variant": "V56S", "binding fitness [natural log]": -1.46}
{"Variant": "M51D", "binding fitness [natural log]": -1.41}
{"Variant": "K36R", "binding fitness [natural log]": -1.24}
{"Variant": "R30W", "binding fitness [natural log]": -1.36}
{"Variant": "S43T", "binding fitness [natural log]": -1.3}
{"Variant": "A46R", "binding fitness [natural log]": -1.23}
{"Variant": "V35R", "binding fitness [natural log]": -1.49}
{"Variant": "K36T", "binding fitness [natural log]": -1.43}
{"Variant": "N42H", "binding fitness [natural log]": -1.33}
{"Variant": "Q55H", "binding fitness [natural log]": -1.45}
{"Variant": "K34A", "binding fitness [natural log]": -1.44}
{"Variant": "S47E", "binding fitness [natural log]": -1.17}
{"Variant": "I28R", "binding fitness [natural log]": -1.34}
{"Variant": "T37N", "binding fitness [natural log]": -1.28}
{"data": "Series 4", "target": "ABI1, truncated, D143A, DHFR fusion (Arabidopsis thaliana)", "method": "DHFR PCA, deep sequencing", "medium": "yeast", "setting": "methotrexate growth selection, single substitutions", "with": "(+)-ABA 710 µM", "baseline": "wild-type fitted maximum", "reading": "higher = stronger binding", "starting sequence": "PYL1, truncated, DHFR fusion (Arabidopsis thaliana); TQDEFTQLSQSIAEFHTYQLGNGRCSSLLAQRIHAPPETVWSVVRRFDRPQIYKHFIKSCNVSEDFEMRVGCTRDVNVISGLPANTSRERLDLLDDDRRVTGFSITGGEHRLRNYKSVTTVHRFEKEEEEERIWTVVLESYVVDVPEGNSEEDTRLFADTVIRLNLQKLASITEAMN; partner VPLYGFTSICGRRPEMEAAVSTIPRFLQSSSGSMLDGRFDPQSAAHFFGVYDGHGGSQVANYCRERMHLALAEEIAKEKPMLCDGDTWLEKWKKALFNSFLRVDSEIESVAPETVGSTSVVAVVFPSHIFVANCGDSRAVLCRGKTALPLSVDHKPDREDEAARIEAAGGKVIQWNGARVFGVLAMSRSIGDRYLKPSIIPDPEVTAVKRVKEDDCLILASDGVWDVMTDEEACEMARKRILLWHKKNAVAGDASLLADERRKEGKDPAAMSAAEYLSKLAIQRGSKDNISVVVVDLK"}
{"Variant": "T119G", "relative binding score [%]": 1.86}
{"Variant": "V137L", "relative binding score [%]": 81.6}
{"Variant": "F47K", "relative binding score [%]": -12.2}
{"Variant": "G102K", "relative binding score [%]": 88.5}
{"Variant": "V78C", "relative binding score [%]": 104}
{"Variant": "R155H", "relative binding score [%]": 90.1}
{"Variant": "S150Q", "relative binding score [%]": 83.8}
{"Variant": "R90D", "relative binding score [%]": 39.6}
{"Variant": "G81D", "relative binding score [%]": 68.6}
{"Variant": "N149C", "relative binding score [%]": 79.9}
{"Variant": "F124W", "relative binding score [%]": 105}
{"Variant": "I105Q", "relative binding score [%]": -10.7}
{"Variant": "D144W", "relative binding score [%]": 52.8}
{"Variant": "V137M", "relative binding score [%]": 49.8}
{"Variant": "A158M", "relative binding score [%]": 94.4}
{"Variant": "T173K", "relative binding score [%]": 33.7}
{"Variant": "E67D", "relative binding score [%]": 99.6}
{"Variant": "V43H", "relative binding score [%]": 80.1}
{"Variant": "V76H", "relative binding score [%]": 28.4}
{"Variant": "E131N", "relative binding score [%]": 111}
{"data": "Series 5", "target": "Sal-like protein 4, full length isoform A (SALL4, Homo sapiens, UniProt Q9UJQ4, residues 1-1053)", "method": "universal PBM", "form": "double-stranded DNA, one strand shown", "medium": "in vitro", "tested at": "600 nM", "setting": "8-mer, flanks averaged, mean of replicates", "reading": "higher = stronger binding", "sequence of UniProt Q9UJQ4 (whole entry, looked up)": "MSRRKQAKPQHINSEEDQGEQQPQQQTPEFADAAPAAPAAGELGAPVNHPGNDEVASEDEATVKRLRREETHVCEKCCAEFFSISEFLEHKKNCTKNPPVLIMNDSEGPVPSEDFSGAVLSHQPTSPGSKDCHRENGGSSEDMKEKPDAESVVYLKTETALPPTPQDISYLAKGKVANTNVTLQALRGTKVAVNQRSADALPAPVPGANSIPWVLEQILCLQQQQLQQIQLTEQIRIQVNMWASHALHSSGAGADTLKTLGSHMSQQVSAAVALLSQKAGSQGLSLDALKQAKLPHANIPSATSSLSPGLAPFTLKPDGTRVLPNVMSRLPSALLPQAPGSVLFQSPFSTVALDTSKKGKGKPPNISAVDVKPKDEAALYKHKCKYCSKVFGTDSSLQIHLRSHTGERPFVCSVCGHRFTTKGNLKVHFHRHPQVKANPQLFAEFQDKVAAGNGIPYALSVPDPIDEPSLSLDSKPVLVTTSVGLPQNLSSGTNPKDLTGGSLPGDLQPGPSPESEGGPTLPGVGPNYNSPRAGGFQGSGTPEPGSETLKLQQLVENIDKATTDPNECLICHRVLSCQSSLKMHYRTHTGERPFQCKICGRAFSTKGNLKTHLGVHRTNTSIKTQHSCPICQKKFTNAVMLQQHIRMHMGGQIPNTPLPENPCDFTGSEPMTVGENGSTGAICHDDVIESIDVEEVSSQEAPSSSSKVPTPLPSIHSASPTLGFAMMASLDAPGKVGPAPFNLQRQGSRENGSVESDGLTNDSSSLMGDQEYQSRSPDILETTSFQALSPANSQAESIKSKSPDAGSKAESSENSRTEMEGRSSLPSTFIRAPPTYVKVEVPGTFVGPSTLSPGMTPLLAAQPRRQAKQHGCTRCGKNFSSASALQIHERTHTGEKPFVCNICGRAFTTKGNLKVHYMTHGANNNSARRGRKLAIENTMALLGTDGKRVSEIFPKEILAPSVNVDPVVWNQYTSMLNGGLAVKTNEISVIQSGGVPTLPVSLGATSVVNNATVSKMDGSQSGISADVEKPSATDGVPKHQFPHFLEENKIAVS"}
{"Oligonucleotide": "CGGTGCCA", "E-score": -0.37}
{"Oligonucleotide": "ACCACCAA", "E-score": -0.0835}
{"Oligonucleotide": "ACCACTAG", "E-score": 0.00351}
{"Oligonucleotide": "TCCTAACA", "E-score": 0.188}
{"Oligonucleotide": "CAGGAAGC", "E-score": -0.109}
{"Oligonucleotide": "ACGGCCTG", "E-score": -0.295}
{"Oligonucleotide": "CCGTACAC", "E-score": -0.165}
{"Oligonucleotide": "CACGTGGG", "E-score": -0.322}
{"Oligonucleotide": "GAAGTCCC", "E-score": -0.204}
{"Oligonucleotide": "CAGCGCTG", "E-score": -0.0689}
{"Oligonucleotide": "CTTGAGTC", "E-score": -0.0811}
{"Oligonucleotide": "CGCTCGTA", "E-score": -0.0777}
{"Oligonucleotide": "AATGGGCT", "E-score": -0.121}
{"Oligonucleotide": "CACGTGCG", "E-score": -0.231}
{"Oligonucleotide": "GTTTGATA", "E-score": 0.203}
{"Oligonucleotide": "CCAATCTA", "E-score": 0.0249}
{"note": "For quick reference, copied from above (series 2):"}
{"Oligonucleotide": "GUCCUGUGCUACACAUCGUAUGUACCGAAUCGGGAAAAAAAGGGAAAAAGGGAAAGGGAAAGUAUUAUGUUACGCCGUUCGGAUCUGCAC", "log2 enrichment": -0.361}
{"Oligonucleotide": "AGUCCUGUGCUACACAUCGUAUGUACCGAAUCGGGGUGGGGUUUGGGGUUUUUGGGGAAAGUAUUAUGUUACGCCGUUCGGAUCUGCACU", "log2 enrichment": 1.28}
{"Oligonucleotide": "CCUGUGCUACACAUCGUAUGUACCGAAUCGGGGAAAAAAAGGGGAGGGGAAAAAAAGGGGAAAGUAUUAUGUUACGCCGUUCGGAUCUGC", "log2 enrichment": -0.000793}
{"Oligonucleotide": "AGUCCUGUGCUACACAUCGUAUGUACCGAAUCGGGGUUUUGGGUUUUGGUUUUGGGGAAAGUAUUAUGUUACGCCGUUCGGAUCUGCACU", "log2 enrichment": 0.251}
{"Oligonucleotide": "ACCAUGCAGGUGGGCAUCUUUGGGAAGUGGGGCAAGGGGGGGAUAGGGAGGGGGGUAACACUUUGGGAACAGGUGGUCUCAGGUCGUUUC", "log2 enrichment": 0.726}
{"Oligonucleotide": "ACCAUGCAGGUGGGCAUCUUUGGGAAGUGGGGCAAGGGGGGGAUAGGGAGGGUGGUAACACUUUGGGAACAGGUGGUCCCAGGUCGUUUC", "log2 enrichment": 0.792}
{"Oligonucleotide": "UGGGAGGUGGACUUUGUUUAUUUUUUUAGCUCAUUUCCAGGGGUGGGAAUUUUUUUUUAAUAUGUGUCAUGAAUAAAGUUGUUUUUGAAA", "log2 enrichment": -0.0274}
{"Oligonucleotide": "CCUCAAGUCCUGUGCUACACAUCGUAUGUACCGAAUCGGGCGGGGCGGCGGGGAAAGUAUUAUGUUACGCCGUUCGGAUCUGCACUUCCA", "log2 enrichment": 0.99}
{"Oligonucleotide": "CACAGACAACACGCACCCACACAGACACAGAGGGAAGGGGUUGGGAUGGGGACAGGGUGCACAGCAGGGCGGGGUAGGACCCCUGCCCCU", "log2 enrichment": 1.37}
